{"data": "Published values gathered from unrelated publications", "note": "Each numbered part is a random draw from the data of one study; scales do not carry over between parts. “And” joins repeats or separate records; there may be more than shown.", "UniProt Q86Z02, sequence (whole entry, looked up)": "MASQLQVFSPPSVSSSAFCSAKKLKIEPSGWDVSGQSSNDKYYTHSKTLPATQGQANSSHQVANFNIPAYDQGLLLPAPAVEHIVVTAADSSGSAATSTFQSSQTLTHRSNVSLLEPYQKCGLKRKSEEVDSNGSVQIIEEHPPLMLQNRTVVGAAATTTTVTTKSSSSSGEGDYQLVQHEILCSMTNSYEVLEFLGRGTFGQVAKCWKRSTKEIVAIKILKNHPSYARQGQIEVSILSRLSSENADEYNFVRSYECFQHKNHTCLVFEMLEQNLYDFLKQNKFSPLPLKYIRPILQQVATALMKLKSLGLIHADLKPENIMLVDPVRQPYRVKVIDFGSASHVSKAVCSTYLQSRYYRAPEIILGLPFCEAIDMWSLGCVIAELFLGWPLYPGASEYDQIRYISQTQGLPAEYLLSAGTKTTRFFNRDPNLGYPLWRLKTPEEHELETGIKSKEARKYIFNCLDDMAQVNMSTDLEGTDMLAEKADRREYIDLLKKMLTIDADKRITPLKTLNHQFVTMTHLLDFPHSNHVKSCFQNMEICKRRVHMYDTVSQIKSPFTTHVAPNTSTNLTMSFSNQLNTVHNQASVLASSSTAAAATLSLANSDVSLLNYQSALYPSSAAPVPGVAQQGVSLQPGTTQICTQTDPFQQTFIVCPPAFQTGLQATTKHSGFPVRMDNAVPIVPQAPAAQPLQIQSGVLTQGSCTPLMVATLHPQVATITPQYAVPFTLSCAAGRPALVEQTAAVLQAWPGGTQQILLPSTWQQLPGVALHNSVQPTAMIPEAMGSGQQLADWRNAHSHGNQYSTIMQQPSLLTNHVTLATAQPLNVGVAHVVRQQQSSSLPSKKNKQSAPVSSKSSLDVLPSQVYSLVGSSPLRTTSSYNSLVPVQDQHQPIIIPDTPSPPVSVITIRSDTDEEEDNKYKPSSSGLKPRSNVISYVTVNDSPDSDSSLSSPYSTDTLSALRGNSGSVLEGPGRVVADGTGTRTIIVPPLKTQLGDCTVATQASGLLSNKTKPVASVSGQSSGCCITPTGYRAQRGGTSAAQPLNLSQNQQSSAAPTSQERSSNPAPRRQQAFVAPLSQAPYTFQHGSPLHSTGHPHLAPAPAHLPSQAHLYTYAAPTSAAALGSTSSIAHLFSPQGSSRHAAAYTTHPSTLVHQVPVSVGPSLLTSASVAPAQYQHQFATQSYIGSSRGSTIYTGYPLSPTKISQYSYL", "UniProt Q14289, sequence (whole entry, looked up)": "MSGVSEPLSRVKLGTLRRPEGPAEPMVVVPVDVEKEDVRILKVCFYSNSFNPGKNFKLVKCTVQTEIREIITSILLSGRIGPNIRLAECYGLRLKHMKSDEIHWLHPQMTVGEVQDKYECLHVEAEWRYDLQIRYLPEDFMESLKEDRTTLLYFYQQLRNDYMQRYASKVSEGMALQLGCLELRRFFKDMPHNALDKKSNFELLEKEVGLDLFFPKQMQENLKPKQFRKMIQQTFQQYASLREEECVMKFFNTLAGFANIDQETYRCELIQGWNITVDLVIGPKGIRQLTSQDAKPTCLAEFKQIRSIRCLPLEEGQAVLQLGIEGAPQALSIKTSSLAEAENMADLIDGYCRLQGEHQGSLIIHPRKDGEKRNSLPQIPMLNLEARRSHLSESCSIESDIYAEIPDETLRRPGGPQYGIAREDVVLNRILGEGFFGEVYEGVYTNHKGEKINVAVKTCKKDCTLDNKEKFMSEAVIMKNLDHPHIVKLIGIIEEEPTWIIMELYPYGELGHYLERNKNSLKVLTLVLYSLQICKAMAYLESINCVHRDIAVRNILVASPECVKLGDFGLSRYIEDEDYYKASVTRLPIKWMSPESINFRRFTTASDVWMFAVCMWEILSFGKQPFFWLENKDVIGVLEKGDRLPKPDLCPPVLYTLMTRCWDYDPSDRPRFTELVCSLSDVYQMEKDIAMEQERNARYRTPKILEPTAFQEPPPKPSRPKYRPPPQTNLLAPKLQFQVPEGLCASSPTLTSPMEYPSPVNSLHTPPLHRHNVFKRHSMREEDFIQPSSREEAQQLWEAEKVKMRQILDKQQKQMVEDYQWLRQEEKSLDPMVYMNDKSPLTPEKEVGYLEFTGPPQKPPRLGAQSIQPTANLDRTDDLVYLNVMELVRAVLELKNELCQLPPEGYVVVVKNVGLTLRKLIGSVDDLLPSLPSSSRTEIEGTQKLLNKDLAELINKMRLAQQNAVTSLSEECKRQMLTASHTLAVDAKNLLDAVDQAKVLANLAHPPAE", "UniProt P50613, sequence (whole entry, looked up)": "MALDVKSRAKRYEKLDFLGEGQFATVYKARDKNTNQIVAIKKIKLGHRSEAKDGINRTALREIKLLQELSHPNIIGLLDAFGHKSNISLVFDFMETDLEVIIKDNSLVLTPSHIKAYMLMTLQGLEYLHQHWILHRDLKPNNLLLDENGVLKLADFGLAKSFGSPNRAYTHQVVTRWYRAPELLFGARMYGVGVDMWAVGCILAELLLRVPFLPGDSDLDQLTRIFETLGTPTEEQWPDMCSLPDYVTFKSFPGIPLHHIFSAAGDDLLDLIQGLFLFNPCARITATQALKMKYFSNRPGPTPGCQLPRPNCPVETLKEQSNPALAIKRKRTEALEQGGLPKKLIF"}
{"data": "Series 1", "target": "DNA polymerase theta, helicase domain (POLQ, Homo sapiens, UniProt O75417)", "observed": "ATPase activity", "tested at": "concentration not given", "notes": "average", "together with": "with ssDNA", "UniProt O75417, sequence (whole entry, looked up)": "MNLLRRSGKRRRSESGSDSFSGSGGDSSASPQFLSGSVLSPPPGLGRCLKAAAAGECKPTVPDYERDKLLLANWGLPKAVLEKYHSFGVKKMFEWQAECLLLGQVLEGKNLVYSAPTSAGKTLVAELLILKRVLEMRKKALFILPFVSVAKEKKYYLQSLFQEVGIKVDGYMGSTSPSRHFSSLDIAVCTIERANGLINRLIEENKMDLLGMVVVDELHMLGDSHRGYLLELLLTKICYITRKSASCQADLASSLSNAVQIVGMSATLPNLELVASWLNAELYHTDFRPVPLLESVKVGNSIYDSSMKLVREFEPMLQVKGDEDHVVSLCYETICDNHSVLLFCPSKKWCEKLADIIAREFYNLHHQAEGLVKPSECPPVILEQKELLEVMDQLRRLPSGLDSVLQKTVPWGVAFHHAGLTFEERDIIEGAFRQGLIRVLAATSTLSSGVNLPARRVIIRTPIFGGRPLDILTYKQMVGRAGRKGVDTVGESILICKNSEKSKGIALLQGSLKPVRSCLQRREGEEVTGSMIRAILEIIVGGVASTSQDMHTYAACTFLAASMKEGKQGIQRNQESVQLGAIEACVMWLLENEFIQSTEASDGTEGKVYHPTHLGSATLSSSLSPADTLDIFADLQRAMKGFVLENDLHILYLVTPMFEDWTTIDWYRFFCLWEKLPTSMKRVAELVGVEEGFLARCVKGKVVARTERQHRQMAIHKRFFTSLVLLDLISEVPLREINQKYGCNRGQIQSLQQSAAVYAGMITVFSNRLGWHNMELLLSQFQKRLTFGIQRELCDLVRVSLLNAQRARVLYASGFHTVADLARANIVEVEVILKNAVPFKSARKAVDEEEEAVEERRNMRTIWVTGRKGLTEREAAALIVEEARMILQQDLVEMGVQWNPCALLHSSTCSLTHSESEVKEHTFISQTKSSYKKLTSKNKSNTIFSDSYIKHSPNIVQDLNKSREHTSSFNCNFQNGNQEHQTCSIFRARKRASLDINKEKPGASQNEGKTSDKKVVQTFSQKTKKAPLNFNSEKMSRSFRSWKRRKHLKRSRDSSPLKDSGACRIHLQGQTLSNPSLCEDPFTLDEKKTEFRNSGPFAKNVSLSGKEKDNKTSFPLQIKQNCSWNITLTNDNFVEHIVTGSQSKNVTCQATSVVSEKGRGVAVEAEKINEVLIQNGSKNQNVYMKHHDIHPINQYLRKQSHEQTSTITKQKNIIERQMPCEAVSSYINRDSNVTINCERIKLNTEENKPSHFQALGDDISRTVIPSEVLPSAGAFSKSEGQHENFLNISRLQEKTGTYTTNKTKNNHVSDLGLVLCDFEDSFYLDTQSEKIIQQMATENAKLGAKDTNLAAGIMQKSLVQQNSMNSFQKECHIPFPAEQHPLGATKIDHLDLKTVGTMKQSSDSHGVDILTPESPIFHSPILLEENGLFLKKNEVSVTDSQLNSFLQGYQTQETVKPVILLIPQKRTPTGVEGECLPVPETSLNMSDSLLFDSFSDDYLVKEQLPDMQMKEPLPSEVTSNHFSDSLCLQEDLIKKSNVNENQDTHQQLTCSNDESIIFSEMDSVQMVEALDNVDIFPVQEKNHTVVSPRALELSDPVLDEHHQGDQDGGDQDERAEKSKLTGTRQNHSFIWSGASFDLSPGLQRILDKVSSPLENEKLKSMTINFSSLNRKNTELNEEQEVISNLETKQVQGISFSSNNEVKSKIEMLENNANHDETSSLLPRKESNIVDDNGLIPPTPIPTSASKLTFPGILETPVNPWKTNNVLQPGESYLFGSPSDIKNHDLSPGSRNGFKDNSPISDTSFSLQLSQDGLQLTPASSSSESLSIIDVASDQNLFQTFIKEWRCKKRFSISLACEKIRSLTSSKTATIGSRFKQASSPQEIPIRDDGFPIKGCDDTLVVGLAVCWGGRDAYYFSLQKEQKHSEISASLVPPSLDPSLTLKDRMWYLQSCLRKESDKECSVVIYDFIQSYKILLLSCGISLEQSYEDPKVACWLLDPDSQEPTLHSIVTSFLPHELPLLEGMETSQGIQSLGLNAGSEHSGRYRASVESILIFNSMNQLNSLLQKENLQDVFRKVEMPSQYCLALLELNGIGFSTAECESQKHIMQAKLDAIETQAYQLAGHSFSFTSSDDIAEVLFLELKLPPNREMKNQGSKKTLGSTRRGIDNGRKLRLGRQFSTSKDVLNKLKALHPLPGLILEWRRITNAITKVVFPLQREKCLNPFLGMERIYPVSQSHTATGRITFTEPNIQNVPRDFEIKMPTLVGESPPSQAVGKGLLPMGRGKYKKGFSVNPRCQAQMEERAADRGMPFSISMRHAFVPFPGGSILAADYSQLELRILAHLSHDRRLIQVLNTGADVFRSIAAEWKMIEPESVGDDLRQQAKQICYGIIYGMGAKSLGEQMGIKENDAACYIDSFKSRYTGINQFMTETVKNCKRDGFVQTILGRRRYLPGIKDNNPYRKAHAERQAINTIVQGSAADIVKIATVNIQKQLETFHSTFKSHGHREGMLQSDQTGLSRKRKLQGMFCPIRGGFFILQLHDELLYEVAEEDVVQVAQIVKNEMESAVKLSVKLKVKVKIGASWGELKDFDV"}
{"SMILES": "Cc1nc(N=Nc2cc(S(=O)(=O)O)c3cc([N+](=O)[O-])cc(S(=O)(=O)O)c3c2)c(COP(=O)(O)O)c(C=O)c1O", "remaining activity": "46.6%"}
{"SMILES": "CCOc1cccc2c1N[C@@H](c1ccc(C(=O)O)cc1)[C@H]1CC=C[C@@H]21", "remaining activity": "48.9%"}
{"SMILES": "CC(=O)Oc1cccc2c1C(=O)c1c(OC(C)=O)cc(C(=O)O)cc1C2=O", "remaining activity": "57.4%"}
{"SMILES": "Cc1ccc(C2C=C(c3ccccc3)N=C3N=C(NS(C)(=O)=O)NN32)cc1 (stereo not drawn)", "remaining activity": "90.2%"}
{"SMILES": "O=C(O)c1cccnc1Nc1cccc(C(F)(F)F)c1", "remaining activity": "62.6%"}
{"SMILES": "COc1ccc2c(c1)c(CC(=O)O)c(C)n2Cc1ccc(Cl)cc1", "remaining activity": "69.2%"}
{"SMILES": "N#CSc1cc(SC#N)c(N)nc1N", "remaining activity": "25.6%"}
{"SMILES": "Cc1ccc(-c2n[nH]c3c2C(c2ccccc2Cl)N(c2ccc(C(=O)O)cc2)C3=O)cc1 (stereo not drawn)", "remaining activity": "76%"}
{"SMILES": "COc1cccc(C2C3=C(NN/C3=C3/C=CC=CC3=O)C(=O)N2CCc2ccc(OC)c(OC)c2)c1 (stereo not drawn)", "remaining activity": "58.9%"}
{"SMILES": "O=C(O)C1=CC(=C(c2ccc(O)c(C(=O)O)c2)c2ccc(O)c(C(=O)O)c2)C=CC1=O", "remaining activity": "3.72%"}
{"data": "Series 2", "Compound": "N#Cc1ccc(Nc2ccc3[nH]c(=O)[nH]c3c2)c(Cl)c1", "observed": "cell-free assay", "method": "competition with immobilised ligand", "tested at": "1 µM"}
{"target": "MET (Homo sapiens, UniProt P08581)", "remaining binding [%]": 94}
{"target": "PAK2 (Homo sapiens, UniProt Q13177)", "remaining binding [%]": 79}
{"target": "MAP4K5 (Homo sapiens, UniProt Q9Y4K4)", "remaining binding [%]": 77}
{"target": "HIPK1 (Homo sapiens, UniProt Q86Z02)", "remaining binding [%]": 82}
{"target": "SBK3 (Homo sapiens, UniProt P0C264)", "remaining binding [%]": 96}
{"target": "ERBB3 (Homo sapiens, UniProt P21860)", "remaining binding [%]": 97}
{"target": "MAP3K14 (Homo sapiens, UniProt Q99558)", "remaining binding [%]": 100}
{"target": "DYRK1A (Homo sapiens, UniProt Q13627)", "remaining binding [%]": 100}
{"target": "NEK10 (Homo sapiens, UniProt Q6ZWH5)", "remaining binding [%]": 100}
{"target": "EPHA5 (Homo sapiens, UniProt P54756)", "remaining binding [%]": 100}
{"data": "Series 3", "SMILES": "CCOc1cc2ncnc(Nc3cccc(Br)c3)c2cc1OCC", "observed": "enzyme activity", "mode": "inhibitor", "tested at": "0.5 µM", "reference": "control"}
{"target": "CSNK2A2 (Homo sapiens, UniProt P19784)", "remaining activity": "93.8%"}
{"target": "DMPK (Homo sapiens, UniProt Q09013)", "remaining activity": "102%"}
{"target": "HIPK3 (Homo sapiens, UniProt Q9H422)", "remaining activity": "102%"}
{"target": "Aurora kinase A (AURKA, Homo sapiens, UniProt O14965)", "remaining activity": "110%"}
{"target": "ROCK2 (Homo sapiens, UniProt O75116)", "remaining activity": "91.8%"}
{"target": "PKN2 (Homo sapiens, UniProt Q16513)", "remaining activity": "90%"}
{"target": "SLK (Homo sapiens, UniProt Q9H2G2)", "remaining activity": "64.8%"}
{"target": "CDK7 (Homo sapiens, UniProt P50613)", "remaining activity": "93%"}
{"target": "CAMK1G (Homo sapiens, UniProt Q96NX5)", "remaining activity": "97.2%"}
{"target": "PRKD1 (Homo sapiens, UniProt Q15139)", "remaining activity": "95.4%"}
{"target": "MAPK10 (Homo sapiens, UniProt P53779)", "remaining activity": "101%"}
{"target": "GRK5 (Homo sapiens, UniProt P34947)", "remaining activity": "104%"}
{"target": "ROS1 (Homo sapiens, UniProt P08922)", "remaining activity": "102%"}
{"target": "NTRK3 (Homo sapiens, UniProt Q16288)", "remaining activity": "91.5%"}
{"target": "MAP3K2 (Homo sapiens, UniProt Q9Y2U5)", "remaining activity": "102%"}
{"target": "MAP3K8 (Homo sapiens, UniProt P41279)", "remaining activity": "106%"}
{"target": "CAMK1D (Homo sapiens, UniProt Q8IU85)", "remaining activity": "102%"}
{"target": "RET (Homo sapiens, UniProt P07949)", "remaining activity": "39.3%"}
{"target": "DYRK4 (Homo sapiens, UniProt Q9NR20)", "remaining activity": "96.9%"}
{"target": "NEK9 (Homo sapiens, UniProt Q8TD19)", "remaining activity": "96.7%"}
{"target": "Cyclin-dependent kinase 2, with cyclin A (CDK2, Homo sapiens, UniProt P24941)", "remaining activity": "91.9%"}
{"target": "BRSK1 (Homo sapiens, UniProt Q8TDC3)", "remaining activity": "86.1%"}
{"target": "PTK2B (Homo sapiens, UniProt Q14289)", "remaining activity": "95.8%"}
{"data": "Series 4", "Compound": "COc1cc(C(=O)OCCCN2CCCN(CCCOC(=O)c3cc(OC)c(OC)c(OC)c3)CC2)cc(OC)c1OC"}
{"method": "von Frey, 0.4 g filament", "species": "mouse, CFA inflammatory pain", "route": "intraplantar", "time": "baseline before CFA", "paw withdrawal frequency": "0% and 10% and 20%"}
{"method": "von Frey, 0.4 g filament", "species": "mouse, CFA inflammatory pain", "route": "intravenous", "dose": "dose not given", "time": "1 h post-dose", "notes": "third injection, day 5", "paw withdrawal frequency": "80% and 90% and 70%"}
{"method": "von Frey, 0.4 g filament", "species": "mouse, CFA inflammatory pain", "route": "intraplantar", "time": "after CFA, before dosing", "paw withdrawal frequency": "90% and 100%"}
{"method": "von Frey test", "species": "mouse, STZ diabetic neuropathy", "route": "subcutaneous", "dose": "30 mg/kg, second of three doses", "time": "24 h", "paw withdrawal frequency": "0.13 fraction of stimuli and 0.29 fraction of stimuli and 0.08 fraction of stimuli"}
{"method": "von Frey test", "species": "mouse, STZ diabetic neuropathy", "route": "subcutaneous", "dose": "30 mg/kg, second of three doses", "time": "3 h", "paw withdrawal frequency": "0.29 fraction of stimuli and 0.11 fraction of stimuli and 0.1 fraction of stimuli"}
{"note": "A few entries again (series 3):"}
{"target": "CSNK2A2 (Homo sapiens, UniProt P19784)", "remaining activity": "93.8%"}
{"target": "Cyclin-dependent kinase 2, with cyclin A (CDK2, Homo sapiens, UniProt P24941)", "remaining activity": "91.9%"}
{"target": "RET (Homo sapiens, UniProt P07949)", "remaining activity": "39.3%"}
{"target": "PKN2 (Homo sapiens, UniProt Q16513)", "remaining activity": "90%"}
{"target": "ROS1 (Homo sapiens, UniProt P08922)", "remaining activity": "102%"}
{"target": "DMPK (Homo sapiens, UniProt Q09013)", "remaining activity": "102%"}
{"target": "BRSK1 (Homo sapiens, UniProt Q8TDC3)", "remaining activity": "86.1%"}
{"target": "CDK7 (Homo sapiens, UniProt P50613)", "remaining activity": "93%"}
